Assay results from different studies.
Every numbered part comes from another study and shows a few of its results, in no order. Substitutions count along the parent as printed.

Series 1
Target: Interferon regulatory factor 7, full length, phosphomimetic (IRF7, Homo sapiens, UniProt Q92985, residues 1-503, S471D/S472D/S475D/S476D/S477D/S483D/S484D/S487D)
Method: protein-binding microarray
Molecule type: double-stranded DNA, one strand shown
Medium: in vitro
Tested at: 2200 nM top
Notes: 60-bp whole probe
Together with: salmon DNA 0.4 mg/ml
Reference: random background probes
Reading: higher = stronger binding
Shared flanks, not repeated: GCCTAGCAC … GTCTTGATTCGCTTGACGCTGCTG
Target sequence (chain): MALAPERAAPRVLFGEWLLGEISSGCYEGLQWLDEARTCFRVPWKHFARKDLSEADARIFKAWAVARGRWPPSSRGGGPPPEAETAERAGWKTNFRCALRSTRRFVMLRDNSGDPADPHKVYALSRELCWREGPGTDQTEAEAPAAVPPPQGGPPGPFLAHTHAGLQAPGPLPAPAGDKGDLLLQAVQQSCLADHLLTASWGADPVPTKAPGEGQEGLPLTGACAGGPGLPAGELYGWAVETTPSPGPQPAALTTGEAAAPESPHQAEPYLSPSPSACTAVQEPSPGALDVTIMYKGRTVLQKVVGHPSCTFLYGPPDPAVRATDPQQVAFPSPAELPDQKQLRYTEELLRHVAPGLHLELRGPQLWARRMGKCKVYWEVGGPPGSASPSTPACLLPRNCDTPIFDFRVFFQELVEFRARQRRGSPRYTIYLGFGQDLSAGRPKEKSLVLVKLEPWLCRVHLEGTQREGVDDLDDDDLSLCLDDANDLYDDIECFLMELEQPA
Sequence	fitted relative affinity
GACGATCTCAGTCTCGAGATGTGCTAG	0.26 z-score
TCAGGCCTCTTGCTCAGACTGTGCTAG	-0.233 z-score
TCATTTTTCCCTCTGGAACTGTGCTAG	2.55 z-score
TTGGGTATCGGACTGGGTTAGTGCTAG	0.166 z-score
GTCGGTCTCCTACTGCTGACGTGCTAG	1.29 z-score
GACGGACTGCTACAGCTGACGTGCTAG	-0.0647 z-score
TTAGGACTCCTACTGCTTTAGTGCTAG	0.562 z-score
TTAGGTTTCGGTTCAGGTTAGTGCTAG	12.9 z-score
TCATGTGTGTGTATGTGACTGTGCTAG	1.11 z-score
TTAGGACTGCTTATCCTTTGGTGCTAG	0.407 z-score
GAGCTCCTCCTTCTCTAACCGTGCTAG	1.34 z-score
TTAGATAGCGGGACTGGATTAGTGCTA	-0.662 z-score
GACGTACTGGGGTATCGAGACGTGCTA	-0.143 z-score
TTAGAACTGAGTAACGATTAGTGCTAG	-0.903 z-score
GACGATCTCGGTTTCGGGACGTGCTAG	3.55 z-score

Series 2
Target: RING finger protein unkempt homolog, zinc fingers 1-6, SBP tag (UNK, Homo sapiens, UniProt Q9C0B0, residues 30-357)
Chain of UniProt Q9C0B0 (30-357, looked up): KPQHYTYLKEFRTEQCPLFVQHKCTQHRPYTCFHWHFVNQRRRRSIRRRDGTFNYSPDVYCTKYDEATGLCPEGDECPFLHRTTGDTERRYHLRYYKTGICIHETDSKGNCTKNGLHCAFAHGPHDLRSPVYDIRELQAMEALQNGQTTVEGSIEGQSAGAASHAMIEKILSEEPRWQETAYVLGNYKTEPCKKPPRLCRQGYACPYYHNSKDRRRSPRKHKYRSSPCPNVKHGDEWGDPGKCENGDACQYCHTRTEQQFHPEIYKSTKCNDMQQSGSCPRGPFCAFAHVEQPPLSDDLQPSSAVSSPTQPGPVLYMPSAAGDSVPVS
Method: RNA Bind-n-Seq
Molecule type: RNA
Medium: in vitro
Tested at: 100 nM
Notes: RNA with constant flanks, vertebrate orthologous sites, ends assumed
Reference: input RNA pool
Reading: higher = stronger binding
Sequence	bound/input enrichment [ratio]
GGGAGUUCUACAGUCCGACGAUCACCUCAUGAACUUUUAAGCUAUCAUAAGUUGUGGUUGUUUUAGAUAGUGACUGUCUUCUGUAGAGCUUUCCCCUGUUUUCUGCCUCCUCCUCUUUUCCCUGUUCCAAAGGUGGAUUUCACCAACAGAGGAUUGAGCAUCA	0.376
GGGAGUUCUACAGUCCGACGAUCUAAUUCCAGUCUCUUUUGCCAAGGGCUGAUAUGAAAUAUGAUUUUUUUAUUGCUUCUGUAUUACUGUUAACAUUGGGUGGGUGAUACAAAAUACAAAGUGGCAGAGUUCUUCUGUUCUUCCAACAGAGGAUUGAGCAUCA	0.795
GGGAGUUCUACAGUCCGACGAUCUAAUCUCUAAGCCAGGAACACUUGUAAAAUGCUAUUUAUUUGUGUCUGUAAGUUUGUACAUAAUACUAUCAACCUCAUAUUGUUCUUGAAUUAUUUGGGGGGGGGGGUGAGUUUGAGUUUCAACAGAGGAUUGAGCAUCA	0.926
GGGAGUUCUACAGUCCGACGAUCCAACGCCAUGGUGGAAGGCUCUGAGCUCAAAAAGGUCCGAUCCAACUCCAGGGUGUAUCACCGAUACUUUCUUUUGGAUGCUGAUAUGCAGUCUCUCCGUUGGGAACCUUCAAAGAAGGACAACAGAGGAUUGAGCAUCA	0.337
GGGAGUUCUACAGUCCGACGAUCACCCCGAUUUUAGAUGUGAUACCUAGGCUUCAUUCCAGUUUGUUUUUGUCUUUUCUUGUUUAGAUACCAAUCUUUUAAAUUCUUGCAUUUUAGUAAGAAAGCUACCUUUUUAUGGAUGUUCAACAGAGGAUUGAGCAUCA	1.33
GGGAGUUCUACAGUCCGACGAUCAAGAUGGUGGUUGUACAUACUUUUAUUUAGAAAAUAUAAACUUUCAUUUUGUUUUGAAGCUAGAUAUUAAACUGGAAUAGCUAUUAUACCCGAGUGGGGGCACUUGUGCCCUUCCCUUGACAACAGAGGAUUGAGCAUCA	0.65
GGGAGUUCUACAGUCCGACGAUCAAAUUUAUUUCAUGCCAUGGACCCCGUAUCGUACGGACACCUUGAUAGAAUAUGCUUCUUUGGAGGACUUCCAAAACAGCCGCCAAACAACAACAUAUAAACUUCCCAAUCGGGUAGAUGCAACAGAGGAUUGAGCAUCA	0.554
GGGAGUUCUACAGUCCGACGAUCGCACAGCAACUCUUACAGUCUUAGGUGUUACCAAGAACAGAUCUCAACUGUAAGAGUUGUCAGUACAGGUUUUCUUUUCCUUUUGUUUUUGUUAUUGUUUUUUUUUUUUUUUUUUUUUUUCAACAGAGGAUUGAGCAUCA	3.31
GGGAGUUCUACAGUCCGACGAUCAUCCCAGUUUGUAUGCACAUUAUUCACAUUCCUAUCUGUUGUGUUUGCAGAAAUUACAUUUUAUCCUUUUCUAAGGAAUAUCUUUUGAUUUUCAUGUUAUUUGGUUGCAUGGAGUUGCCUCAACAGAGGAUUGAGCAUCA	0.527
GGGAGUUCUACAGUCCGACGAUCGAAGUCCUGGCGGCUUGUAUUACCUCAGUGAGGUAAGGUCUCCUAGCAUUCGACCGGGACCAACCCCUCCAUCCUCAGAAUCUCCACGUGUAAUUUUAUUUCUUUUAUACUUGCUCAUCUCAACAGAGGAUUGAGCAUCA	0.216
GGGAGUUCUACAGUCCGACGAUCCUCCUAGCGUCAUACCAGCAUCUUCGCUAUCAGACGUGCACAGCUUACAAAGGAACAGUCUAGUGGUAUGGGUUAUUUUCAUUUCAAAACCUGCUUUUUUUUUUCCCAAGACUGAAAAAACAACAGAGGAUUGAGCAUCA	0.51

Series 3
Target: Sal-like protein 4, full length isoform A (SALL4, Homo sapiens, UniProt Q9UJQ4, residues 1-1053)
Chain of UniProt Q9UJQ4 (whole entry, looked up): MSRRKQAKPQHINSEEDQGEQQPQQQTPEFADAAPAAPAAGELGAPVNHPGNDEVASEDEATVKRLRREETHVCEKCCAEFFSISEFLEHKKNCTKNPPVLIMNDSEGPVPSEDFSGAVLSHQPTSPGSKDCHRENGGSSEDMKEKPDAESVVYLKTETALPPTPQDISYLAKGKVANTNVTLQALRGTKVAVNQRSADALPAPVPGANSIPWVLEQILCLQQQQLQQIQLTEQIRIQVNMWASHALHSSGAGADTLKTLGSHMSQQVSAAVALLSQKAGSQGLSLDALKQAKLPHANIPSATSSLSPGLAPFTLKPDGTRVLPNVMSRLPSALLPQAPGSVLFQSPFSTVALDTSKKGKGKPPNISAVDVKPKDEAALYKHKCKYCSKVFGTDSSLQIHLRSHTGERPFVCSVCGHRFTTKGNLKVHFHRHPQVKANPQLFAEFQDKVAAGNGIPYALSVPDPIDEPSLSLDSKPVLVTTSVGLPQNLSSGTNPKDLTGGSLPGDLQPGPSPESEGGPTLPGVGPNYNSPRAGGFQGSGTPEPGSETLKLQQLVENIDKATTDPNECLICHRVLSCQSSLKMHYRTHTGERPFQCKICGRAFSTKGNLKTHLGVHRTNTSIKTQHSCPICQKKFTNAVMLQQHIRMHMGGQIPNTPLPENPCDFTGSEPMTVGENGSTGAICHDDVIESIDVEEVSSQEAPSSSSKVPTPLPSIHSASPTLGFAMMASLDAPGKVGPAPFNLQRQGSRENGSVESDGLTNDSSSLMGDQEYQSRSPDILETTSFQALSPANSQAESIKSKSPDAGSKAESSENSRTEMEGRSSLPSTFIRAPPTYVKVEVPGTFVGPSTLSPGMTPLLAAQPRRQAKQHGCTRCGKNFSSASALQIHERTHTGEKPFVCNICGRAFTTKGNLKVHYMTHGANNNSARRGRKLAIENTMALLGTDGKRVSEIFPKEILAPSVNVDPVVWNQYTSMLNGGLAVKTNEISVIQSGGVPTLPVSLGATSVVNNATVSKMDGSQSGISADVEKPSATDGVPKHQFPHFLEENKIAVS
Method: universal PBM
Molecule type: double-stranded DNA, one strand shown
Medium: in vitro
Tested at: 600 nM
Notes: 8-mer, flanks averaged, mean of replicates
Reading: higher = stronger binding
Sequence	E-score
ACACAGGA	0.0233
AGGAGCAT	-0.0109
CCTATCCC	-0.188
GATGTAAC	0.148
ACCGTAAC	0.0407
GACCAGTC	-0.309
GACGTTTA	0.0982
AATACGTG	0.147
CGGCTGTC	-0.205
CTGTATAA	0.24
CCAACGAA	-0.155
CCTTTGTA	0.0596
AAATTCCA	0.285
AATTATTC	0.402
CACGCTAG	-0.0871
CAACCACG	-0.069
ATGGCGAA	0.105
CGACTCAA	-0.0192
ACCAATAA	0.23
CGCCGAAG	-0.317
ACCCCCCC	-0.414
CGCTTCTA	-0.0817

Series 4
Target: Runt-related transcription factor 1, full length (RUNX1, Homo sapiens, UniProt Q01196-8, residues 1-480)
Method: protein-binding microarray
Molecule type: hairpin DNA
Medium: in vitro
Tested at: not given
Notes: whole hairpin DNA, median over replicate spots
Reference: not given
Reading: higher = stronger binding
Sequence	median fluorescence [a.u.]
CTCAGTTCAGTGGGCTGGACTCCTGTCCAGCCCACTGAACTGAGACACTC	1790
GAGGCCTCTTGTGGTTGGCCTCCTGGCCAACCACAAGAGGCCTCACACTC	3030
GAGGCCTGTCGCGGTTGGCCTCCTGGCCAACCGCGACAGGCCTCACACTC (5mC at 37)	2620
GAGGCCTTTTGCGGTTGGCCTCCTGGCCAACCGCAAAAGGCCTCACACTC	7670
GAGGCCTGTGGCGGTTGGCCTCCTGGCCAACCGCCACAGGCCTCACACTC (5mC at 35)	2730
GAGGCCTGTTTTGGTTGGCCTCCTGGCCAACCAAAACAGGCCTCACACTC	1720
GAGGCCCAACCGCGACAGCCTCCTGGCTGTCGCGGTTGGGCCTCACACTC (5mC at 13)	2910
CTCAGTTCTGTGGGCGGGACTCCTGTCCCGCCCACAGAACTGAGACACTC	2290
GAGGCCTGTCGCGGTTGGCCTCCTGGCCAACCGCGACAGGCCTCACACTC (5mC at 5)	2590
CTCAGTTCTGTGGGCTGGACTCCTGTCCAGCCCACAGAACTGAGACACTC (5mC at 15)	1950
GAGGCCTGTCGCGGGTGGCCTCCTGGCCACCCGCGACAGGCCTCACACTC	2080
GAGGCCCACGCGCAACAGCCTCCTGGCTGTTGCGCGTGGGCCTCACACTC	1810
CTCAGTCCTGTGGGCTGGACTCCTGTCCAGCCCACAGGACTGAGACACTC	1850
GAGGCCCAACCACAACAGCCTCCTGGCTGTTGTGGTTGGGCCTCACACTC	2990
GAGGCCTGTTACGGTTGGCCTCCTGGCCAACCGTAACAGGCCTCACACTC	1760
GAGGCCCGACCGCAACAGCCTCCTGGCTGTTGCGGTCGGGCCTCACACTC (5mC at 37)	4320

Series 5
Target: CCNE1, cyclin fold, Cln2 fusion (human)
Method: yeast growth competition, sequencing
Medium: yeast
Notes: strong parent motif
Reference: not given
Reading: higher = stronger binding
Starting sequence: PKMYT1 docking peptide (human); SFEPRNLLSLFED
Substitution	normalised enrichment score
SFEVRNLLSLFED [P4V]	1.18
SFEPRNLLSPFED [L10P]	0.346
SFEPRNLLMLFED [S9M]	1.46
SFVPRNLLSLFED [E3V]	3.02
SFDPRNLLSLFED [E3D]	0.772
SFEPRNLLSSFED [L10S]	1.89
SFEPDNLLSLFED [R5D]	1.16
SFEPPNLLSLFED [R5P]	0.598
SFEPRNLLSLMED [F11M]	0.484
SFEPENLLSLFED [R5E]	1.06
SFEPRNLLNLFED [S9N]	1.54
SFEPRNLLYLFED [S9Y]	2.37
SFEPTNLLSLFED [R5T]	1.49
SFEPRNLLSLFEC [D13C]	2.14
SFEPRNILSLFED [L7I]	1.56
SFENRNLLSLFED [P4N]	0.417
SFEPRNLLSLFKD [E12K]	1.12

For quick reference, copied from above (series 1):
Sequence	fitted relative affinity
GACGTACTGGGGTATCGAGACGTGCTA	-0.143 z-score
TTGGGTATCGGACTGGGTTAGTGCTAG	0.166 z-score
GACGATCTCAGTCTCGAGATGTGCTAG	0.26 z-score
GTCGGTCTCCTACTGCTGACGTGCTAG	1.29 z-score
TTAGAACTGAGTAACGATTAGTGCTAG	-0.903 z-score
TCATTTTTCCCTCTGGAACTGTGCTAG	2.55 z-score
GAGCTCCTCCTTCTCTAACCGTGCTAG	1.34 z-score
TTAGGACTGCTTATCCTTTGGTGCTAG	0.407 z-score
TCAGGCCTCTTGCTCAGACTGTGCTAG	-0.233 z-score
